Assay results collected from several papers.
Every numbered part comes from another study and shows a few of its results, in no order.

Study 1
Target: Max dimerization protein 1, bHLH-zipper, MAX partner unstated (MXD1, Homo sapiens, UniProt Q05195, residues 56-136)
Method: protein-binding microarray
Molecule type: double-stranded DNA, one strand shown
Medium: in vitro
Tested at: not given
Notes: k-mer, scored over probes, only values ≥0.25
Direction: higher = stronger binding
Construct (chain): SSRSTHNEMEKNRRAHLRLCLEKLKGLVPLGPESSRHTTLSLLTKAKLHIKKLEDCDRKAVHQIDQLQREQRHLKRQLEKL
With `CCACGGCG` the E-score was 0.251.
The E-score of `CACGCTTC` is reported as 0.336.
With `CTCGTGAC` the E-score was 0.355.
For `CGAGACGC`, the E-score was 0.255.
With `ATGCGTGC` the E-score was 0.349.
`ACGCGACT` gave an E-score of 0.324.
For `ATGAGGAC`, the E-score was 0.271.

Study 2
Target: Fragile X messenger ribonucleoprotein 1, C-terminal low-complexity region (Fmr1, Mus musculus, UniProt P35922)
Method: RNA Bind-n-Seq
Molecule type: RNA
Medium: in vitro
Tested at: 200 nM
Notes: whole 134-nt RNA, ends assumed
With: 150 mM KCl
Relative to: input library
Direction: higher = stronger binding
`GGGAGUUCUACAGUCCGACGAUCUGCCUGGCCCAGUGCUGGGUUUGCCUUGUUGACGAUGCGCUUGGAUUGUUAAGGACACCGAUGUUCAGAACCCGGGAAGAGUCAUCUUAAUGGAAUUCUCGGGUGUCAAGG` has a log2 enrichment of -1.97.
For `GGGAGUUCUACAGUCCGACGAUCAGUCCUGUGCUACACAUCGUAUGUACCGAAUCGGGAAAGGGAAAAAGGGAAAAAGGGAAAGUAUUAUGUUACGCCGUUCGGAUCUGCACUUGGAAUUCUCGGGUGUCAAGG`, the log2 enrichment was -0.198.
`GGGAGUUCUACAGUCCGACGAUCUCCUGUGCUACACAUCGUAUGUACCGAAUCGGGUUUUUUGGUUUUUUGGUUUUUUGGGGAAAGUAUUAUGUUACGCCGUUCGGAUCUGCAUGGAAUUCUCGGGUGUCAAGG` gave a log2 enrichment of -0.387.

Study 3
Target: Histone acetyltransferase KAT6A, winged helix 2, GST fusion (KAT6A, Homo sapiens, UniProt Q92794, residues 85-181)
Method: protein binding microarray
Molecule type: double-stranded DNA, one strand shown
Medium: in vitro
Tested at: not given
Notes: 8-mer, flanks averaged, mean of 2 arrays, mostly near background
Relative to: not given
Direction: higher = stronger binding
Target sequence (chain): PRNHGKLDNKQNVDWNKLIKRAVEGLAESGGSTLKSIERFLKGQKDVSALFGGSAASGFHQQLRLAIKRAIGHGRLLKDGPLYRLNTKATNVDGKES
`GCTCATTA` gave an E-score of -0.0224.
`AAATGTAC` gave an E-score of -0.126.
`ATGAACTC` has an E-score of -0.0312.
The E-score of `AGTTAATG` is reported as -0.0592.
`CTATGGGC` has an E-score of -0.0415.
`CACTAGCA` gave an E-score of -0.0393.
With `AGTGATCC` the E-score was -0.00029.

Other studies, line by line
For `PhoQ, residues 284 288 289 292 302 303 AGHLVA`, the fold induction was 1.25 (PhoP, residues 12 14 15 18 19 HLGGL (Escherichia coli, UniProt P23836); Sort-seq, measured: YFP reporter; E. coli; PhoQ-PhoP variant library, with: 10 µM Mg2+; relative to: high Mg2+ state, higher = stronger signaling).
